Published values collected from several papers.
Parts stem from different laboratories: compare values within a part only.

Study 1
Target: Ras GTPase-activating protein-binding protein 1, C-terminal RGG region (G3BP1, Homo sapiens, UniProt Q13283)
UniProt Q13283, sequence (whole entry, looked up): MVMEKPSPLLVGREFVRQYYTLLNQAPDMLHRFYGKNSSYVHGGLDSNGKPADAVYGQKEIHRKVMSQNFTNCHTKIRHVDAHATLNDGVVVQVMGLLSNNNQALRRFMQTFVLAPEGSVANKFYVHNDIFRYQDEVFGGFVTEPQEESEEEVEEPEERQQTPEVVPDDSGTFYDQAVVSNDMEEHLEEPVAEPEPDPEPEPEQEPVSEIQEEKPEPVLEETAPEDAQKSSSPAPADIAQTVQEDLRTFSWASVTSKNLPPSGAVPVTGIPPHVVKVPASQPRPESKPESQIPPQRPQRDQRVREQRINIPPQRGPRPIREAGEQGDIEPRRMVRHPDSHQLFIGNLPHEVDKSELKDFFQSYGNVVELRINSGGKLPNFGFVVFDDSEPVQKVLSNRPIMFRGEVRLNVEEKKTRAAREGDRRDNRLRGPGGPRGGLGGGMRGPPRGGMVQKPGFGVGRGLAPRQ
Technique: RNA Bind-n-Seq
Molecule type: RNA
Medium: in vitro
Tested at: 1 µM
Notes: whole 134-nt RNA, ends assumed
Together with: 150 mM KCl
Reference: input library
Reading: higher = stronger binding
With `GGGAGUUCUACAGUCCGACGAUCUGUGCUACACAUCGUAUGUACCGAAUCGGGGAAAAAAAGGGAAAAAAAGGGGAAAAAAAGGGGAAAGUAUUAUGUUACGCCGUUCGGAUCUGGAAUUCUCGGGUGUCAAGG` the log2 enrichment was -0.88.
`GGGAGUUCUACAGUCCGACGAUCGCAGGAAGUAAAAACAAAUGGAAAUGCUUCGGAUAGUGGCAGGGGUGGGGGUUGCUAAGGAAAGGGUGGGAUGGGAGUGGGUAAAGAUUUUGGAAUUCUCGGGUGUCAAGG` has a log2 enrichment of 0.554.
`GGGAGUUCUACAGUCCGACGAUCGUCCUGUGCUACACAUCGUAUGUACCGAAUCGGUUUUUUGGGUUUUUUGGUUUUUUGGAAAGUAUUAUGUUACGCCGUUCGGAUCUGCACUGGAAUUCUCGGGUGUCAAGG` gave a log2 enrichment of -1.27.
`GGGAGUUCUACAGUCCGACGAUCGCAGGAAGUAAAAACAAAUGUAAAUGCUUCGGAUAGUGGCAGGGGUGGGGGUUGCUAAGGAAAGGGUGGGAUGGGAGUGGGUAAAGAGUUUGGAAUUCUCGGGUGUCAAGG` has a log2 enrichment of 2.13.
The log2 enrichment of `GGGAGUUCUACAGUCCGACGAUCCUCAAGUCCUGUGCUACACAUCGUAUGUACCGAAUCGGGUGGGGUGGGGUGGGGAAAGUAUUAUGUUACGCCGUUCGGAUCUGCACUUCCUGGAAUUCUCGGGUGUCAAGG` is reported as 2.46.
The log2 enrichment of `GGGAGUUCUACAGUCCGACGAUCACCAUGCAGGUGGGCAUCUUUGGGAAGUGAAACAAGGGGGGGAUAGGGAGGGGGGUAACACUUUGGGAACAGGUGGUCCCAGGUCGUUUCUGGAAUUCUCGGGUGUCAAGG` is reported as -1.27.
`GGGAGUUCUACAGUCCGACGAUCUUGAUGUUAGUAAAUUUGGUGUAAUACGUGGGGCUUCCAUAUUUCAAAGUGGAAGCUUUCUUCUCUGAAGUCGAUAUAUGGUUUUGAAUUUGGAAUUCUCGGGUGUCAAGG` gave a log2 enrichment of -1.26.
`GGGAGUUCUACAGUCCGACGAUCGUCCUGUGCUACACAUCGUAUGUACCGAAUCGGGGUUUUUUGGUUUUUUGGUUUUUUGGAAAGUAUUAUGUUACGCCGUUCGGAUCUGCAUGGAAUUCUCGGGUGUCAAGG` gave a log2 enrichment of -1.56.
With `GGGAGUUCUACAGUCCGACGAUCCUCAAGUCCUGUGCUACACAUCGUAUGUACCGAAUCGGUUGGGGUUGGUUGGGGAAAGUAUUAUGUUACGCCGUUCGGAUCUGCACUUCCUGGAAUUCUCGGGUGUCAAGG` the log2 enrichment was 0.447.

Study 2
Target: PABPC1L2, full length, GST fusion (mouse, UniProt A0ABA7IW68)
Technique: RNAcompete
Molecule type: RNA
Medium: in vitro
Tested at: 20 nM
Notes: 7-mer, probes averaged, single round
Reference: mean of 7-mers
Reading: higher = stronger binding
Construct (chain): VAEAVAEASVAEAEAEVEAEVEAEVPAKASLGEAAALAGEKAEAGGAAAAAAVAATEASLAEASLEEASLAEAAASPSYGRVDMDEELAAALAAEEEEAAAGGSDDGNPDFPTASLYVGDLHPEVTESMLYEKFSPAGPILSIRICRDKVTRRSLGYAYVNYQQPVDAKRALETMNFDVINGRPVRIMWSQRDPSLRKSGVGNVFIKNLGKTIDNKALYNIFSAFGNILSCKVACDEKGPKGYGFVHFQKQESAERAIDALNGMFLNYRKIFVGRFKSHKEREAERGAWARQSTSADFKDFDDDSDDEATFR
The 7-mer Z-score of `CCUGGCG` is reported as -0.229.
`GUUGUUC` has a 7-mer Z-score of -0.434.
`UAUUGAC` gave a 7-mer Z-score of -0.132.
`GGAGGCU` has a 7-mer Z-score of 0.175.
The 7-mer Z-score of `CGCUCUG` is reported as -0.338.
For `CAGCGAC`, the 7-mer Z-score was 0.0261.
The 7-mer Z-score of `UUAACAA` is reported as 0.066.
With `CUGUGGU` the 7-mer Z-score was -0.237.
The 7-mer Z-score of `GCCCGUA` is reported as -0.153.
The 7-mer Z-score of `UAGGAUU` is reported as -0.0536.
With `CUACGGA` the 7-mer Z-score was -0.0699.
For `GAAAUCA`, the 7-mer Z-score was 0.448.
For `CCCGCCG`, the 7-mer Z-score was -0.447.
The 7-mer Z-score of `GUACUUG` is reported as -0.128.
The 7-mer Z-score of `UCAAUCG` is reported as -0.19.
With `GCUUCGU` the 7-mer Z-score was -0.411.
`CCAGCUC` has a 7-mer Z-score of -0.228.
`CCAUAGC` has a 7-mer Z-score of -0.324.
`ACUUCUC` gave a 7-mer Z-score of -0.338.
`UGAGGUC` gave a 7-mer Z-score of -0.153.

Study 3
Target: Prothrombin, mature alpha-thrombin (F2, Homo sapiens, UniProt P00734)
Technique: aptamer microarray, sandwich
Molecule type: DNA with 2'F-ANA
Medium: in vitro
Tested at: 200 nM
Notes: whole 15-mer aptamer, many near background
Together with: Cy3 exosite-II aptamer, 400 nM
Reading: higher = stronger binding
Oligonucleotide: GGTTGGTGTGGTTGG
`2'F-ANA at 1 4 5 6 9 10 11 12 13 15`: “mean fluorescence intensity” 55.6 a.u.
`2'F-ANA at 1 2 5 6 8 12 13 15` — result for “mean fluorescence intensity”: 86.7 a.u.
Under “mean fluorescence intensity”, `2'F-ANA at 4 8 11 12 13 15` is recorded as 366 a.u.
`2'F-ANA at 2 3 5 11 12 13 14` — result for “mean fluorescence intensity”: 54 a.u.
Under “mean fluorescence intensity”, `2'F-ANA at 3 6 7 8 9 12` is recorded as 1260 a.u.
Under “mean fluorescence intensity”, `2'F-ANA at 3 4 7 8 9 10 12 13 14 15` is recorded as 215 a.u.
For `2'F-ANA at 1 6 7 9 14`, “mean fluorescence intensity” read 55.5 a.u.
`2'F-ANA at 1 2 3 4 5 6 7 8 12 13 15`: “mean fluorescence intensity” 181 a.u.
`2'F-ANA at 2 5 10 12 13 15`: “mean fluorescence intensity” 47.5 a.u.
`2'F-ANA at 1 2 7 11 13 15`: “mean fluorescence intensity” 125 a.u.
`2'F-ANA at 1 4 7 11 12 14 15`: “mean fluorescence intensity” 58.5 a.u.
`2'F-ANA at 2 3 6 8 9 11 13 14`: “mean fluorescence intensity” 311 a.u.
`2'F-ANA at 1 2 3 6 10 11 14`: “mean fluorescence intensity” 80.5 a.u.
Under “mean fluorescence intensity”, `2'F-ANA at 3 4 5 7 8 9 12 13 15` is recorded as 126 a.u.
Under “mean fluorescence intensity”, `2'F-ANA at 3 4 6 10 11 12 13 14` is recorded as 166 a.u.
`2'F-ANA at 1 5 6 12 15`: “mean fluorescence intensity” 105 a.u.
For `2'F-ANA at 3 4 6 10 11 15`, “mean fluorescence intensity” read 221 a.u.
For `2'F-ANA at 3 8 9 10 11 12 15`, “mean fluorescence intensity” read 666 a.u.
`2'F-ANA at 1 3 6 7 10 11 12 14`: “mean fluorescence intensity” 76.5 a.u.
For `2'F-ANA at 1 3 5 14 15`, “mean fluorescence intensity” read 45.9 a.u.
For `2'F-ANA at 1 2 3 6 8 10 11 13 15`, “mean fluorescence intensity” read 59.8 a.u.
`2'F-ANA at 1 5 7 8 11 13`: “mean fluorescence intensity” 81.3 a.u.

Study 4
Target: RNA binding protein fox-1 homolog 2, RRM domain, GST-SBP tag (RBFOX2, Homo sapiens, UniProt O43251-10, residues 100-194)
Technique: RNA Bind-n-Seq
Molecule type: RNA
Medium: in vitro
Tested at: 365 nM
Notes: natural RNA segment, single round, ends assumed
Reference: no-protein control
Reading: higher = stronger binding
Construct (chain): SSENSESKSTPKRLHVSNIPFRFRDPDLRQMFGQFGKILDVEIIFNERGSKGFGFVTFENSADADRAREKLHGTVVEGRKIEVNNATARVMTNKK
For `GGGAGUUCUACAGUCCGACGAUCGGGCUGGGUCAUUGGGCCUGCAGCAGCAUCUGCCCAGAUGCAUCCAAGAACUUGUUAACCCUCCCUUAGCCCCUGCCCAUCCAAAGCUGGGCACACGCCUCAGAGCUGCCUGGAAUUCUCGGGUGCCAA`, “RBNS enrichment (R)” read 0.329.
`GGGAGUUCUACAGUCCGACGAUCGUACUAUGUUGAAAAAAUAUCCUGUCCACAAAGACAUAAGCCUAACAACCUAGAAAAACAACAGGGUACUACUGGCAUUACAGAACUUCUUUGCCUUUCAAAACAAAAGCUGGAAUUCUCGGGUGCCAA`: “RBNS enrichment (R)” 0.341.
`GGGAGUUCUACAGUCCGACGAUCUUCCUGUACCUUUGACUAACGCUCAGCUUCCGGGCCUGCAUGCAGUAGACAGAAGAGGAAGAAAGAACAGAUGUUCACAGCUGAAUCUCAGUGAACAGAAUAGCAGUCCCUGGAAUUCUCGGGUGCCAA` — result for “RBNS enrichment (R)”: 1.11.
For `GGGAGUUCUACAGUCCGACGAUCGCCAGGAAGACCCAUAACUGGUUUUAACACUAACUAGAGGGAAUGACUUCUUUGCAUAGUGAGUGACUUGGGCCUUCACAAACAGGGUGUGGAGUGGCAGGCAGAGGCCUUGGAAUUCUCGGGUGCCAA`, “RBNS enrichment (R)” read 0.586.
`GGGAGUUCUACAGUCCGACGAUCCUAUAUGCAAGUUUUGUGAAACCUGCCUCCUUCCCGUGCAAUGUGUCCCUCCUCACAAGUGCUUAGUUUCUGUUAACUAGAAGUAUCAUUCUUGGGUGGAAAUAGGUCUCUGGAAUUCUCGGGUGCCAA`: “RBNS enrichment (R)” 0.349.
For `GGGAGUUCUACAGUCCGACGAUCUGUACAGGAAUGUGAAGGGAGGCCUCUGAGCAGUCCAGGGUGUGCUUGACAAAGUCCCAAGUGCUCAGGACUUUUAGCCCUGUCUACUUUGGCUUGGUUUGGAUGAUUCUUGGAAUUCUCGGGUGCCAA`, “RBNS enrichment (R)” read 0.722.
`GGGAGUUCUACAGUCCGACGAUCGGCCUUUCAGCUCCUUGUGUGCCUGUUGUGUCUGGUAAUGAUGUAGUUCAGAGUGGGAUUUUUUUCUUUGAACCUUAAAGGUUUUAUUUUAGAACGAGGCACAGAUCGCAUGGAAUUCUCGGGUGCCAA`: “RBNS enrichment (R)” 9.43.
`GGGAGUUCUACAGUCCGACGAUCCCAGGGUUGCUUGGAGAAGGCUCAGUGUGCCUGGGACAGGGCUUACCACCUGCCACCAAGGUUUCCUCUCUUCCCCCAGGACCUGGGCAGAGCAGGCAUGAGCUGGGCUGUGGAAUUCUCGGGUGCCAA` — result for “RBNS enrichment (R)”: 2.19.

Study 5
Target: Histone acetyltransferase KAT6A, both winged helices, GST fusion (KAT6A, Homo sapiens, UniProt Q92794, residues 1-181)
Technique: protein binding microarray
Molecule type: double-stranded DNA, one strand shown
Medium: in vitro
Tested at: not given
Notes: 8-mer, flanks averaged, mean of 2 arrays, mostly near background
Reference: not given
Reading: higher = stronger binding
Construct (chain): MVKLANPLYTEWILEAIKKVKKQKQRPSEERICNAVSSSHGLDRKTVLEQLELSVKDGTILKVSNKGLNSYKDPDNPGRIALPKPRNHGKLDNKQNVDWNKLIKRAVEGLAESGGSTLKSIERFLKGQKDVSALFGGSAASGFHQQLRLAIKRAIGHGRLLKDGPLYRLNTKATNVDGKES
`ACGCTGGA` has an E-score of 0.00277.
For `ACCCATAC`, the E-score was -0.236.
`ACAGGCCT` has an E-score of -0.0669.
`ACTGTCGG` has an E-score of 0.158.
With `CAAACTGA` the E-score was -0.047.
`CTTGCGTC` gave an E-score of 0.0501.
For `CAAGAGCC`, the E-score was -0.0549.
For `TCTCAGCA`, the E-score was -0.187.
`GAAGGCGC` gave an E-score of 0.257.
The E-score of `CTAAATAG` is reported as -0.0319.
For `AGTCACTG`, the E-score was -0.0269.
For `AATGCCTA`, the E-score was -0.168.
For `CACTGGAA`, the E-score was -0.14.
`AATACCAT` has an E-score of -0.05.
`CTCATGAA` has an E-score of -0.00321.
`AAAGCGTA` gave an E-score of 0.128.
`GGTCTCAA` gave an E-score of -0.00893.
With `CAGTGGGC` the E-score was -0.157.
With `AGTTGCGC` the E-score was 0.243.
`AATTCACC` gave an E-score of -0.107.

Some of these lines once more (study 3):
`2'F-ANA at 1 4 7 11 12 14 15`: “mean fluorescence intensity” 58.5 a.u.
`2'F-ANA at 1 4 5 6 9 10 11 12 13 15`: “mean fluorescence intensity” 55.6 a.u.
`2'F-ANA at 1 5 7 8 11 13`: “mean fluorescence intensity” 81.3 a.u.
Under “mean fluorescence intensity”, `2'F-ANA at 3 4 5 7 8 9 12 13 15` is recorded as 126 a.u.
Under “mean fluorescence intensity”, `2'F-ANA at 3 4 6 10 11 12 13 14` is recorded as 166 a.u.
`2'F-ANA at 1 2 7 11 13 15`: “mean fluorescence intensity” 125 a.u.
For `2'F-ANA at 1 3 5 14 15`, “mean fluorescence intensity” read 45.9 a.u.
`2'F-ANA at 1 3 6 7 10 11 12 14`: “mean fluorescence intensity” 76.5 a.u.
